# Measurements collected from several papers.
# Each numbered part is a random draw from the data of one study; scales do not carry over between parts. Values joined by “and” are separate records of one study, mostly repeats; a detail may differ.

# Set 1
# Cell line: mouse MPNST tumor cells
# Technique: high-content immunofluorescence imaging
# Measured: nuclear SOX9
# Concentration: 10 µM
# Time: 12 h
# Notes: mean of 2 replicates
# Baseline: DMSO control
# Direction: higher = more nuclear SOX9
SMILES,nuclear SOX9 intensity
Cc1ccc(S(=O)(=O)OCC(=O)Nc2ccc(C(=O)O)c(O)c2)cc1,112 % of DMSO
CC(C)Oc1cccc(CC(=O)N2CCC[C@](CC[N+]34CCC(c5ccccc5)(CC3)CC4)(c3ccc(Cl)c(Cl)c3)C2)c1,108 % of DMSO
CC(C)N1CCN(S(=O)(=O)c2ccc(NC(=O)c3ccc(C(F)(F)F)cc3[N+](=O)[O-])cc2)CC1,113 % of DMSO
Nc1ccc(S(=O)(=O)Nc2cnc3ccccc3n2)cc1,121 % of DMSO

# Set 2
# SMILES: CC(C)(C)c1cnc(CSc2cnc(NC(=O)C3CCN(CCCCCSc4cccc5c4CN(C4CCC(=O)NC4=O)C5=O)CC3)s2)o1 (centres unmarked)
# Species: NSG mouse, HuT78 xenograft
# Dose: dose not given
setting,tumour volume
"intraperitoneal, day 5",66 mm³ and 28.7 mm³ and 84.7 mm³ and 62.5 mm³
"subcutaneous, day 18",397 mm³ and 1030 mm³ and 1060 mm³ and 256 mm³ and 845 mm³
"intraperitoneal, day 10",41.6 mm³ and 52.6 mm³ and 10.2 mm³ and 66 mm³
"subcutaneous, day 0",0 mm³
"subcutaneous, day 6",7.8 mm³ and 55.3 mm³ and 13.5 mm³
"intraperitoneal, day 14",129 mm³ and 113 mm³ and 162 mm³ and 98.3 mm³

# Set 3
# Structure (SMILES): CC(=O)N[C@@H](Cc1c[nH]c2ccccc12)C(=O)N[C@@H](CCC(=O)C=[N+]=[N-])C(=O)OC(C)C
# Route: subcutaneous
# Dose: 0.3 mg/kg/day DON equivalent
# Time: 5 days
# Direction: higher = more metabolite
assay,system,metabolite peak area
"UPLC-MS/MS metabolomics, measured: cystine","EL4, C57BL/6 CES1-/- mice, EL4 tumour, tumour",2.28e+06 a.u. and 2.38e+06 a.u. and 1.43e+07 a.u. and 6.27e+06 a.u. and 6.51e+06 a.u. and 6.16e+06 a.u.
"UPLC-MS/MS, measured: trigonelline","C57BL/6 CES1-/- mice, EL4 tumour",4.68e+07 a.u. and 3.06e+07 a.u. and 3.04e+07 a.u. and 2.32e+07 a.u. and 2.48e+07 a.u. and 3.99e+07 a.u.
"UPLC-MS/MS metabolomics, measured: ergothioneine","EL4, C57BL/6 CES1-/- mice, EL4 tumour, tumour",9.58e+07 a.u. and 1.54e+08 a.u. and 1.14e+08 a.u. and 9.79e+07 a.u. and 8.29e+07 a.u. and 1.24e+08 a.u.
"UPLC-MS/MS metabolomics, measured: cytosine","EL4, C57BL/6 CES1-/- mice, EL4 tumour, tumour",596000 a.u. and 1.04e+06 a.u. and 1.28e+06 a.u. and 1.36e+06 a.u. and 1.47e+06 a.u. and 1.01e+06 a.u.

# Set 4
# Cell line: normal organoid sample F
# Technique: CellTiter-Glo
# Species: human
# Sample: normal-adjacent epithelium
# Concentration: 1 µM
# Baseline: DMSO
Compound,viability
CC(=O)c1c(NS(C)(=O)=O)c2cc(-c3ccc(Cl)cc3)c(-c3ccc(Cl)cc3Cl)nc2n(C)c1=O,118% and 104%
CO[C@@H](C)c1c(Nc2ccc([C@H](N(C)C(=O)C3CCS(=O)(=O)CC3)C(F)(F)F)cc2)cnc2cc(Cl)nn12,92.2% and 71.2%
Cc1nc(N2CC[C@@H](O)C2)ncc1-c1cc(C(F)(F)F)cc2[nH]ncc12,98.3% and 102%
CN(C)CC#Cc1ccc(OCCCc2sc(N3CCc4cccc(C(=O)Nc5nc6ccccc6s5)c4C3)nc2C(=O)O)c(F)c1,18.6% and 20.7%
Cc1c(NC(=O)c2ccc(C(C)(C)C)cc2)cccc1-c1cn(C)c(=O)c(Nc2ccc(C(=O)N3CCOCC3)cc2)n1,130% and 169%
O=C(NS(=O)(=O)c1ccc(NCC2CCOCC2)c([N+](=O)[O-])c1)c1ccc(N2CCN(Cc3ccc(C(F)(F)F)cc3-c3ccc(Cl)cc3)CC2)cc1Oc1cnc2[nH]ccc2c1,110% and 125%
O=C(N1CCS(=O)(=O)CC1)N1C[C@H](c2ccc(OC(F)(F)F)cc2)C[C@H](c2nc(C3CC3)no2)C1,102% and 109%
Cc1c(C(=O)O)cc(-c2ccc(C3CCNCC3)cc2)c2ccc(-c3ccc(C(F)(F)F)cc3)cc12,110% and 120%
CC(=O)C1=C(C)N(c2cccc(C(F)(F)F)c2)C(=O)N[C@@H]1c1ccc(C#N)nc1,115% and 109%
O=c1nc(-c2ccccn2)sc2ccccc12,85.7% and 113%
Cc1ccc2nc(CNCCCOc3ccccc3)cc(O)c2c1,108% and 134%
C[C@H](NC(=O)Nc1cc2[nH]ncc2c(CO)n1)c1ccccn1,98.1% and 97.3%

# For quick reference, copied from above (set 2):
setting,tumour volume
"intraperitoneal, day 5",66 mm³ and 28.7 mm³ and 84.7 mm³ and 62.5 mm³
"subcutaneous, day 18",397 mm³ and 1030 mm³ and 1060 mm³ and 256 mm³ and 845 mm³
"intraperitoneal, day 10",41.6 mm³ and 52.6 mm³ and 10.2 mm³ and 66 mm³
"subcutaneous, day 0",0 mm³
